Literature values that unrelated publications cite.
Each numbered part shows a few of the values that one paper quotes. ± gives the spread as reported.
Sequence of UniProt Q8JUX6 (whole entry, looked up): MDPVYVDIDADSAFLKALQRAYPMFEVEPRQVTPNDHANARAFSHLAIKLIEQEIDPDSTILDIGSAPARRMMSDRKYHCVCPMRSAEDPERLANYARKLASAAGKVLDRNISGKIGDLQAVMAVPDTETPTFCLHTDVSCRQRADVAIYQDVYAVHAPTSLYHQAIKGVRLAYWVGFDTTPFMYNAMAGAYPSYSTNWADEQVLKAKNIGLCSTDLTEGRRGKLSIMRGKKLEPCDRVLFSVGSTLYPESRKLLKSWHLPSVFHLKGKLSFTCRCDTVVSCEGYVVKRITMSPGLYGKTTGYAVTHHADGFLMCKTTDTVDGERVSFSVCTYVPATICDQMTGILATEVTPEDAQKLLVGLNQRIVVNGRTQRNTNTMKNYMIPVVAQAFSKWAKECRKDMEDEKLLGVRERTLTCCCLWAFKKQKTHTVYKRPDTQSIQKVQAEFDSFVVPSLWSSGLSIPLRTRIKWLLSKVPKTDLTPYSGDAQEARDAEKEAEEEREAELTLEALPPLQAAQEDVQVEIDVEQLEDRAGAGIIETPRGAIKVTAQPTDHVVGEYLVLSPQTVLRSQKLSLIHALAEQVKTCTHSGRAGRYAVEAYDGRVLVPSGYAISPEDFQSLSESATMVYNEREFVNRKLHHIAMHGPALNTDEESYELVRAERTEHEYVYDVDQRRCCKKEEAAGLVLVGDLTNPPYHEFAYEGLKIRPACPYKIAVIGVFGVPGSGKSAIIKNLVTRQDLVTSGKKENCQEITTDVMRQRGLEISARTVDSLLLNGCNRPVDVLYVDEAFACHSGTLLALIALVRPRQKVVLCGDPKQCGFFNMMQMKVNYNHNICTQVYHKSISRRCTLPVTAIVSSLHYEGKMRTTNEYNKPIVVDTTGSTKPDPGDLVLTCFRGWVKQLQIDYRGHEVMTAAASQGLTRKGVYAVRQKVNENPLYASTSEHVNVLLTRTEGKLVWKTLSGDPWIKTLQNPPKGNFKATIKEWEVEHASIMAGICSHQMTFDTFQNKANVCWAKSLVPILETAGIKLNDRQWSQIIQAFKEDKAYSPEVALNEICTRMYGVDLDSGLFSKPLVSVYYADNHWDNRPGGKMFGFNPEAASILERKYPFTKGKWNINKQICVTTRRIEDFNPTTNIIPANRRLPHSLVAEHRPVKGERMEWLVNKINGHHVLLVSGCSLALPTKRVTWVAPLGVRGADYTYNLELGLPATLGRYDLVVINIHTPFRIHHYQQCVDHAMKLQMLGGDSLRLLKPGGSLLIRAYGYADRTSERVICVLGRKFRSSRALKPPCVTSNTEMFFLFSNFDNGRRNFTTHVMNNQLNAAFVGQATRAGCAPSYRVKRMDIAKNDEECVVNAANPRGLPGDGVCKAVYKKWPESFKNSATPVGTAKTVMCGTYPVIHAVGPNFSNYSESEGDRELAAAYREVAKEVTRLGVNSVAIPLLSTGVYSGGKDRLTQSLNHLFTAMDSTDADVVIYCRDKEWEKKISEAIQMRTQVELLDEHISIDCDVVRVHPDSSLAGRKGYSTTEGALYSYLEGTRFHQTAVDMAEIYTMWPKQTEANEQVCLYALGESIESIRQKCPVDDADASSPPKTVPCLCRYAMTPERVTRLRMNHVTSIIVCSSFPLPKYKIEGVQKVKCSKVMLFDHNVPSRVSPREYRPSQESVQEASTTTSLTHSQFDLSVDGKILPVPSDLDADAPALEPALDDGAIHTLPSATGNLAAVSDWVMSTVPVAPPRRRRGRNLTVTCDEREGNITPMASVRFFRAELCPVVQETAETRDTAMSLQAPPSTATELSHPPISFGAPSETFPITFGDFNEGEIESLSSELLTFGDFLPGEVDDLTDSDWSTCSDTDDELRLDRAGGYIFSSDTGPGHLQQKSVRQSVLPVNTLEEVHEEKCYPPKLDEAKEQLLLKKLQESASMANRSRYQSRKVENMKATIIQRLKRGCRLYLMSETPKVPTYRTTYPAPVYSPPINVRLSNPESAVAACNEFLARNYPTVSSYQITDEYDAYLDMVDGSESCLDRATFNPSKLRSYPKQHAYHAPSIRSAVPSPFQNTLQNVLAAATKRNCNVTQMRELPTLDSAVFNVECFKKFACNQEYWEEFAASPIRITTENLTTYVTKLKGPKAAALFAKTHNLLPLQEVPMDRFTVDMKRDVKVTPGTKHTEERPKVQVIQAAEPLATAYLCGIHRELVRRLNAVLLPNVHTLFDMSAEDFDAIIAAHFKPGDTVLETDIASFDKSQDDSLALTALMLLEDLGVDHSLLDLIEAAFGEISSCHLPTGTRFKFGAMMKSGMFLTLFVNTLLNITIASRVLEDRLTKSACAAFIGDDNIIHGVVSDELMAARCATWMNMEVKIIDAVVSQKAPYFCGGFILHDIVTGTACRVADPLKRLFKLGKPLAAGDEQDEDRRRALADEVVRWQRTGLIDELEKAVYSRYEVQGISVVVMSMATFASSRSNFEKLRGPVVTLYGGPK

Set 1
Organism: SARS-CoV-2
Observed: cytopathic effect
Cell line: Caco-2
Concentration: 10 µM
Measurement: inhibition
O=c1sn(-c2cccc3ccccc23)c(=O)n1Cc1ccccc1: -2.1%
CN(C)C(=S)SSC(=S)N(C)C: 22.4%
Oc1cc(CNC(=S)/C=C/c2cc(O)c(O)c(Br)c2)cc(O)c1O: 5.1%
CCn1c(-c2nonc2N)nc2cnc(Oc3cccc(NC(=O)c4ccc(OCCN5CCOCC5)cc4)c3)cc21: -4.4%
NC(=S)N/N=C/c1coc2ccccc2c1=O: 11.9%
Cc1ccc(S(=O)(=O)/C=C/C#N)cc1: 0.234%
O=C(O)c1c(Cl)c(Cl)c(Cl)c(Cl)c1-c1c2cc(I)c(=O)c(I)c-2oc2c(I)c(O)c(I)cc12: 15.3%
S=C(S)N1CCCC1: -4.8%
C[C@@H]1O[C@@H](Oc2c(-c3cc(O)c(O)c(O)c3)oc3cc(O)cc(O)c3c2=O)[C@@H](O)[C@H](O)[C@H]1O: -11.4%
CCCC[C@@H](C=O)NC(=O)[C@H](CC(C)C)NC(=O)OCc1ccccc1: 9.5%
C=C1c2cccc(O)c2C(=O)C2=C(O)[C@]3(O)C(=O)C(C(N)=O)=C(O)[C@@H](N(C)C)[C@@H]3[C@@H](O)[C@H]12: 9.1%
CC(C)c1cc(CNc2nc(Nc3cc(C4CC4)[nH]n3)cc(N3CCN(C)CC3)n2)on1: 4.9%
Cc1cc(-c2ccc(/N=N/c3ccc4c(S(=O)(=O)O)cc(S(=O)(=O)O)c(N)c4c3O)c(C)c2)ccc1/N=N/c1ccc2c(S(=O)(=O)O)cc(S(=O)(=O)O)c(N)c2c1O: 34.8%

Set 2
Organism: SARS-CoV-2
Observed: viral cytopathic effect
Cell line: Vero E6
Concentration: 20 µM
Measurement: inhibition
O=C(Nc1ccc2c(O)cc(S(=O)(=O)[O-])cc2c1)Nc1ccc2c(O)cc(S(=O)(=O)[O-])cc2c1.[Na+].[Na+]: -0.04%
OC[C@H]1O[C@H]([S-])[C@H](O)[C@@H](O)[C@@H]1O.[Au+]: -0.05%
O=C(Nc1cccnc1)N1CCC(Cc2cccc(Oc3ccc(C(F)(F)F)cn3)c2)CC1: -0.2%
O=C(N/N=C/c1ccc(O)c(O)c1)c1cc2ccccc2cc1O: 0.09%

Single results of other studies
CCC(C(=O)Nc1sc(C(N)=O)c(C)c1C(=O)OC)c1ccccc1 (centres unmarked)
EC50 (vaccinia virus; viral propagation): 19.7 µM

C[C@@H]1CCO[C@H]2Cn3cc(C(=O)NCc4ccc(F)cc4F)c(=O)c(O)c3C(=O)N12
EC50 (HIV-1; viral replication, single-round vector infection; IN G118R): 0.0184 ± 0.0015 µM

COc1ccc2c(O[C@@H]3C[C@H]4C(=O)N[C@]5(C(=O)NS(=O)(=O)C6CC6)C[C@H]5/C=C\CCCCN(C)C(=O)[C@@H]4C3)cc(-c3nc(C(C)C)cs3)nc2c1C
EC50 (SARS-CoV-2; viral replication; A549-hACE2): 9 µM

C[C@H](NC(=O)[C@@H](c1cccnc1)N(C(=O)c1ccco1)c1ccc(-c2ccccc2)cc1)c1ccccc1
IC50 (human cathepsin L; enzyme activity, inhibitor): 11 µM

COc1ccc([C@@H]2CC(=O)c3c(O)cc(O[C@@H]4O[C@H](CO[C@@H]5O[C@@H](C)[C@H](O)[C@@H](O)[C@H]5O)[C@@H](O)[C@H](O)[C@H]4O)cc3O2)cc1O
IC50 (Polyprotein P1234, nsP2 protease domain (Chikungunya virus, UniProt Q8JUX6); enzyme activity, inhibitor): 7.1 ± 1.1 µM

Oc1ccc([C@H]2Oc3cc(O)cc([C@@H]4[C@H](c5cc(O)cc(O)c5)[C@@H](c5ccc(O)cc5)O[C@H]4c4ccc(O)cc4)c3[C@@H]2c2cc(O)c3c(c2)[C@@H](c2cc(O)cc(O)c2)[C@H](c2ccc(O)cc2)O3)cc1
EC50 (SARS-CoV-2; viral replication): 71.6 µM

O=C(c1cc(=O)[nH]c2ccccc12)N1CCN(c2ccc(Cl)c(Cl)c2)CC1CN1CCOCC1 (centres unmarked)
IC50 (human protease panel; enzyme activity, inhibitor; off-target): > 100 µM

O=C(NCc1c(F)cc(F)cc1F)c1cn2c(c(O)c1=O)C(=O)N1[C@H]3CC[C@H](C3)O[C@@H]1C2
EC50 (HIV-1; viral replication, single-round vector infection; IN R263K): 0.0048 ± 0.0008 µM

C[C@@H]1C[C@H]2[C@@H]3CCC4=CC(=O)C=C[C@]4(C)[C@@]3(F)[C@@H](O)C[C@]2(C)[C@@]1(O)C(=O)CO
Cmax (human, plasma; intravenous, 4 mg): > 100 ng/mL

Some of these lines once more (set 1):
C[C@@H]1O[C@@H](Oc2c(-c3cc(O)c(O)c(O)c3)oc3cc(O)cc(O)c3c2=O)[C@@H](O)[C@H](O)[C@H]1O: -11.4%
O=C(O)c1c(Cl)c(Cl)c(Cl)c(Cl)c1-c1c2cc(I)c(=O)c(I)c-2oc2c(I)c(O)c(I)cc12: 15.3%
CCn1c(-c2nonc2N)nc2cnc(Oc3cccc(NC(=O)c4ccc(OCCN5CCOCC5)cc4)c3)cc21: -4.4%
C=C1c2cccc(O)c2C(=O)C2=C(O)[C@]3(O)C(=O)C(C(N)=O)=C(O)[C@@H](N(C)C)[C@@H]3[C@@H](O)[C@H]12: 9.1%
